Measured values from different studies.
pIC50: −log10 of the molar value.
Cell line: HOP-62

SMILES = CC/C=C\C/C=C\C/C=C\C/C=C\C/C=C\C/C=C\CCC(=O)Nc1ccn(C2OC(CO)C(O)C2(F)F)c(=O)n1 (stereo not drawn); method = NCI60 screen; quantity = TGI; value = 4.47 µM
SMILES = COc1cc(CNC(=O)C[C@H](C)CCC=C(C)C)ccc1OCc1cn(-c2ccccc2[N+](=O)[O-])nn1; method = SRB; concentration = 10 µM; time = 48 h; quantity = growth percent; value = 78.1%
SMILES = O=C(CSc1nnc(-c2ccccc2)o1)N1CCC(=C2c3ncccc3CCc3cc(Cl)cc(Br)c32)CC1; observed = cell growth or viability; method = SRB; quantity = pIC50; value = < 3.92
SMILES = COc1cc(CNC(=O)C[C@H](C)CCC=C(C)C)ccc1OCc1cn(-c2cccc(C(F)(F)F)c2)nn1; method = SRB; concentration = 10 µM; time = 48 h; quantity = growth percent; value = 88.8%
SMILES = CC(=O)OC[C@H]1O[C@@H](Sc2sc(C(=O)c3ccc(C)cc3)c(N)c2-c2nc3ccccc3s2)[C@H](OC(C)=O)[C@@H](OC(C)=O)[C@H]1OC(C)=O; method = SRB; concentration = 10 µM; time = 48 h; baseline = untreated; quantity = growth; value = 86.1%
SMILES = CCC(=C(c1ccc(Cl)cc1)c1ccc(OCCCN(C)C)cc1)c1ccc(OC)cc1; observed = cell growth or viability; method = SRB; quantity = GI50; value = 7.76 µM
SMILES = COc1ccc(C2=Nn3c(NN=C4C(=O)N(Cc5ccccc5)c5ccc(Cl)cc54)nnc3SC2)cc1; observed = cell growth or viability; method = SRB; concentration = 10 µM; quantity = inhibition; value = 37%
SMILES = COc1cc(CNC(=O)C[C@H](C)CCC=C(C)C)ccc1OCc1cn(-c2ccc([N+](=O)[O-])cc2)nn1; method = SRB; concentration = 10 µM; time = 48 h; quantity = growth percent; value = 104%
SMILES = O=C(CN1CCN(c2nsc3ccccc23)CC1)N1CCC(=C2c3ncccc3CCc3cc(Cl)cc(Br)c32)CC1; observed = cell growth or viability; method = SRB; quantity = pIC50; value = 4.22
SMILES = COc1cc(CNC(=O)C[C@H](C)CCC=C(C)C)ccc1O; method = SRB; concentration = 10 µM; time = 48 h; quantity = growth percent; value = 85.8%
SMILES = O=C(CNc1nnc(-c2ccccc2)s1)N1CCC(=C2c3ncccc3CCc3cc(Cl)cc(Br)c32)CC1; observed = cell growth or viability; method = SRB; quantity = pIC50; value = < 3.92
SMILES = CC(=O)OC[C@H]1O[C@@H](Sc2sc(C(=O)c3ccc(Br)cc3)c(N)c2-c2nc3ccccc3s2)[C@H](OC(C)=O)[C@@H](OC(C)=O)[C@@H]1OC(C)=O; method = SRB; concentration = 10 µM; time = 48 h; baseline = untreated; quantity = growth; value = 63.8%

A few entries again:
SMILES = COc1cc(CNC(=O)C[C@H](C)CCC=C(C)C)ccc1OCc1cn(-c2ccc([N+](=O)[O-])cc2)nn1; method = SRB; concentration = 10 µM; time = 48 h; quantity = growth percent; value = 104%
SMILES = O=C(CSc1nnc(-c2ccccc2)o1)N1CCC(=C2c3ncccc3CCc3cc(Cl)cc(Br)c32)CC1; observed = cell growth or viability; method = SRB; quantity = pIC50; value = < 3.92
